# Results from different studies.
# Each numbered part is a random draw from the data of one study; scales do not carry over between parts. Positions count from the first letter of the parent shown.

# Sample 1 — technique: protein binding microarray; molecule type: double-stranded DNA, one strand shown; sample: in vitro; tested at: not given; reference: not given; reading: higher = stronger binding
# Target: Histone acetyltransferase KAT6A, winged helix 1, GST fusion (KAT6A, Homo sapiens, UniProt Q92794, residues 1-85)
# Setting: 8-mer, flanks averaged, mean of 2 arrays, mostly near background
# Residues (chain): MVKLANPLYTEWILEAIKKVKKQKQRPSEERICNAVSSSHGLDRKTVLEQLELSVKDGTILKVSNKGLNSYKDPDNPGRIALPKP
Strand,E-score
CCAAGGCG,0.259
ATCTTCAG,0.0151
GTTATCCA,-0.194
ATGTGCTC,-0.092
GGGGTAAA,-0.0236
ATTGTCGC,0.0873
AATAACTG,-0.187
CTTTGGAC,-0.0427
ACCCTCAA,-0.244
GAGAGAGA,-0.156
CTGTAGTA,-0.135
ACGAGAAC,-0.107
GAGGATTA,-0.11
AAATAACT,-0.194
CGATGACG,0.19
ACATTGTG,-0.198
CTGAATAC,-0.0654

# Sample 2 — technique: RNA Bind-n-Seq; molecule type: RNA; sample: in vitro; tested at: 365 nM; reference: no-protein control; reading: higher = stronger binding
# Target: RNA binding protein fox-1 homolog 2, RRM domain, GST-SBP tag (RBFOX2, Homo sapiens, UniProt O43251-10, residues 100-194)
# Setting: natural RNA segment, single round, ends assumed
# Constant ends, left off below: GGGAGUUCUACAGUCCGACGAUC … UGGAAUUCUCGGGUGCCAA
# Target sequence (chain): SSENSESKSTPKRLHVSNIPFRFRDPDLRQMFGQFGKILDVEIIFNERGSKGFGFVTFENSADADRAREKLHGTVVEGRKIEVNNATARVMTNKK
Strand,RBNS enrichment (R)
UGGAAUUAUUCAUCCCCUUUGAAAGAUGAGAAGGUUGAGAUGCAAAGAGUCUACCUUUCCAAGUUCUCACUGCUGGAAAGAGCUAGAAGCACAGUUCAAAGUUCUGGCUU,0.606
AUCCUCCUUGGUAUCAUGAAACUGGAGCAGAGGAAUUGCAAUUUAGCAGGAGGUCCUCUACUGGUGAUACCCUCACCUUGGGGUAAUGGUCCUAACCCAGACCCAGGGUC,0.237
UAAGGUGGUAGUAUAAAUGGAAACUUUUUGAAGUAGACCAGAUAUGGGCUACUUGUGACUAGACUUUUAAACUUUGCUCUUUCAAGCAGAAGCCUGGUUUCUGGGAGAAC,0.282
UCCAGAGGGACAGGGUGGACCCCCUGAGUCAACUGGAGCAAGAAGGAAGGAGGCAGACUGAUGGCGAUUCCCUCUCACCCGGGACUCUCCCCCUUUCAAGGAAAGUGAAC,0.524
UUGCAUUUAGUCAAAAGAAAAAAUGCUUUAUAGCAAAAUGAAAGAGAACAUGAAAUGCUUCUUUCUCAGUUUAUUGGUUGAAUGUGUAUCUAUUUGAGUCUGGAAAUAAC,0.604
CAAUUGGUGCAUAAAUGAAAGUAGUACUGUAUACUUGAAACUGUUUAAGUACAAGUUGAACAAAAAUUAUGAAAAGGUAUAUUUGCUUCUCGGGAAAGCAAAGAAGCUGC,0.521
ACUUUUAAGAUGUUACAGAUACAAAGAAAUGAUGUGGGUGUCAGGAGACUAAAGGAUGUUGAAGGCUACACAUUCAACCUUUUGUUAGGUGUUUCCUUUAAGCUACUCAG,0.402
ACACGAGAUAUUCUGCUUUCAGACUUAUUUUAUUGCAACCAGAGAAUAUGAGAAUUUGAUAUGUAAUUAUUUCACAAAUAUGAUCUUUUCAAUAACAAAAUAUCGUAAGU,0.532
UUAAGAUAGUUUGGCUCCAGAGUUGGUGUUUUUAACCACUGUGUUUUCUCACUUUUGUUCAGUGUUUUUAUAAUAUUUGAUAAUAAAAUUCAAGAAAAUCCUAACUAAUG,0.393
ACUCUAUUCAACCAGAGUUUUAUCACGCACCUCAUCGGGUCUCUCCUGGUUGCUGCCCCGAGGUGAUCGUCAUGGAAAAUGCUGAGAAGGUGGGAAUGGGAUGGGGUGGA,1.06
AUACUGGAUUGAAGGAAGGGCUGUCUCCUUUUAACUUCUUGUUGAUAGUUGCAAGUUCUUUAUGCACCUUCUACCCCUUCUGAGCCACUACUAUUCAAGCAGAGAUUUUG,0.986
GUUGCUUGUUGUGUUGUAGGCAUGCUCUUCUCACCUUCUGUCAAGGACCUGGUGCCCUGGGUGGUGGAGGGCUCAGCCCUCUUGAUUCAGUAGCUUCCCAAGCAGCUGCU,0.637

# Sample 3 — target: CCND3, cyclin fold, Cln2 fusion (human); technique: yeast growth competition, sequencing; sample: yeast; setting: weak parent motif; reference: not given; reading: higher = stronger binding
# Starting sequence: CDC6 docking peptide (human); TLKGRRLVFDNQL
Change,normalised enrichment score
TLKGRRLVFDEQL [N11E],0.141
TLKGRPLVFDNQL [R6P],0.134
TLKGRRLVFTNQL [D10T],0.0436
TMKGRRLVFDNQL [L2M],0.129
TLKGRRLVFDMQL [N11M],0.0922
TLKGRRLVPDNQL [F9P],0.186
TLKGSRLVFDNQL [R5S],0.0383
TLKGRRLVADNQL [F9A],0.125
TLKGRRLVRDNQL [F9R],0.0126
TLKGRRPVFDNQL [L7P],0.0513
TLKGRRLVFDSQL [N11S],0.0852
TLKGRRLVMDNQL [F9M],0.0955
TNKGRRLVFDNQL [L2N],0.154
TLKGRRLVFDNRL [Q12R],0.116
TLKLRRLVFDNQL [G4L],0.0099
TLKGRRLVFDIQL [N11I],0.0453
TLKGRRLVFQNQL [D10Q],0.0681
TLKGRRLVFDNML [Q12M],0.117
TLKGERLVFDNQL [R5E],0.0498
TLKGRRLHFDNQL [V8H],0.157

# Other studies, line by line
Substance,target,assay,test system,conditions,how to read,quantity,result
"PhoQ, residues 284 288 289 292 302 303 SIHMAM","PhoP, residues 12 14 15 18 19 SEGLL (Escherichia coli, UniProt P23836)","Sort-seq, item: YFP reporter",E. coli,"PhoQ-PhoP variant library, with: 10 µM Mg2+","reference: high Mg2+ state, higher = stronger signaling",fold induction,5.87
